Measurements of several laboratories.
Each numbered part is a random draw from the data of one study; scales do not carry over between parts.

Sample 1 — method: universal PBM; molecule type: double-stranded DNA, one strand shown; matrix: in vitro; concentration: 600 nM; reading: higher = stronger binding
Target: Sal-like protein 4, full length isoform A (SALL4, Homo sapiens, UniProt Q9UJQ4, residues 1-1053)
UniProt Q9UJQ4, sequence (whole entry, looked up): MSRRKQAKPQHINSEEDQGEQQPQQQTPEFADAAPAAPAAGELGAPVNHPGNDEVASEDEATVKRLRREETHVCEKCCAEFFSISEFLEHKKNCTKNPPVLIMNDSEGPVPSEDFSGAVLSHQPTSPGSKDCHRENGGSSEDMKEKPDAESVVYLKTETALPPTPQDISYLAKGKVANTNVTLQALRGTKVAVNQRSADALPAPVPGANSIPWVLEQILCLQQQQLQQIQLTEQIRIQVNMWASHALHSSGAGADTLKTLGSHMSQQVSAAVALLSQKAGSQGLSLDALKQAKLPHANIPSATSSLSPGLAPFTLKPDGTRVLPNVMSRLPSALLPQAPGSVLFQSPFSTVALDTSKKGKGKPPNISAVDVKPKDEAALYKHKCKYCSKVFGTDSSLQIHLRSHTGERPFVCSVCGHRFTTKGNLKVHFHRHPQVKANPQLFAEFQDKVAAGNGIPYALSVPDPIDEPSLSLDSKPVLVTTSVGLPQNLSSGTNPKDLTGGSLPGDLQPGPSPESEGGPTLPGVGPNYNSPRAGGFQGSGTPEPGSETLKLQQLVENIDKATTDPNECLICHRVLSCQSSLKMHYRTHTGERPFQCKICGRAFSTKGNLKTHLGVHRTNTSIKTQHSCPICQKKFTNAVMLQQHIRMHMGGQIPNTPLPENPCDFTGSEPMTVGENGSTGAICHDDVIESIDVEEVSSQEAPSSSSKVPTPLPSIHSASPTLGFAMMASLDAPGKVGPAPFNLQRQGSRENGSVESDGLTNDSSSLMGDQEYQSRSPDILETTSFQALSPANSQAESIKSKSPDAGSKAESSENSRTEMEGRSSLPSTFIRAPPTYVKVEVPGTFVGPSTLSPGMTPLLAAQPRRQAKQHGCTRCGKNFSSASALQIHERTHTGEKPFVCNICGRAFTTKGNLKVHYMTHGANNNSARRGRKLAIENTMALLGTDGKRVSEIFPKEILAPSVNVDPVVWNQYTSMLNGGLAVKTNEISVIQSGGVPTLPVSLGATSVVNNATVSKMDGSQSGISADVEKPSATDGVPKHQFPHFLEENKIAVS
Notes: 8-mer, flanks averaged, mean of replicates
Oligonucleotide	E-score
ATGGTTTG	-0.0563
AGTACGCG	-0.0206
GCTCAGTA	0.0416
GCGCTGCA	-0.16
AGCATCCC	-0.198
AACCTTAG	0.0152
CCAGTCAC	-0.169

Sample 2 — method: protein binding microarray; molecule type: double-stranded DNA, one strand shown; matrix: in vitro; concentration: not given; relative to: not given; reading: higher = stronger binding
Target: Histone acetyltransferase KAT6A, winged helix 1, GST fusion (KAT6A, Homo sapiens, UniProt Q92794, residues 1-85)
Notes: 8-mer, flanks averaged, mean of 2 arrays, mostly near background
Target sequence (chain): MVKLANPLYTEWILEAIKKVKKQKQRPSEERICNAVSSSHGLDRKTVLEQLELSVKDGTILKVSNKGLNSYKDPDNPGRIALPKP
Oligonucleotide	E-score
GTGCTTGA	-0.214
GACTCGTA	-0.0874
AGTTTTAT	-0.235
TAGAACCA	-0.202
AAAATCAC	-0.199
AAATTGAG	-0.264
ACGTTGAT	-0.148

Sample 3 — method: Sort-seq; item: YFP reporter; matrix: E. coli; notes: PhoQ-PhoP variant library; together with: 10 µM Mg2+; relative to: high Mg2+ state; reading: higher = stronger signaling
Molecule: PhoQ, residues 284 288 289 292 302 303 ASVMEA
target	fold induction
PhoP, residues 12 14 15 18 19 NYFRM (Escherichia coli, UniProt P23836)	19.2
PhoP, residues 12 14 15 18 19 QYFSL (Escherichia coli, UniProt P23836)	24
PhoP, residues 12 14 15 18 19 TQALL (Escherichia coli, UniProt P23836)	6.19

Sample 4 — method: competition protein-binding microarray; molecule type: double-stranded DNA, one strand shown; matrix: in vitro; concentration: 2 µM; together with: Pho4 competitor, 0.05 µM; reading: higher = stronger binding; shared flanks, not repeated: … GTCTTGATTCGCTTGACGCTGCTG
Target: Centromere-binding protein 1, full length, His-tagged (CBF1, Saccharomyces cerevisiae, UniProt P17106, residues 1-351)
UniProt P17106, sequence (whole entry, looked up): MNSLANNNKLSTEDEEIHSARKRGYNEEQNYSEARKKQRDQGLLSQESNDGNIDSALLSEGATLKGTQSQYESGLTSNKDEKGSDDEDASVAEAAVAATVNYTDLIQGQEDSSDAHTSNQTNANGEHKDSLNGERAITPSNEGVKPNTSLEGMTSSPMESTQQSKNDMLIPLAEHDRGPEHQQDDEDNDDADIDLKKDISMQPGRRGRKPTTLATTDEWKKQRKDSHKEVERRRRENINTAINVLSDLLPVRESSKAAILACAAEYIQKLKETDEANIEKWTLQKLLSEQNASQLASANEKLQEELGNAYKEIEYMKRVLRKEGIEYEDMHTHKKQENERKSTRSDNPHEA
Notes: whole 60-bp probe, lowest competitor level
Oligonucleotide	fluorescence intensity [a.u.]
TGTGTCATTTCGACGTTCGTGATGGCAAAACGATGC	157
TCTAGTAGGTGCGCCAGCGTGCGATGATGTGATGAG	75.6
GTCTTGTCTCATTGAAATGTGGGTGTCCCCACTTCA	78.8
TTGACGATTATGATGAACGTGACTCGCAAGAAATAT	754
AGAAATTTTGGCCGCCATGTGGTCTTCTACAATTAT	110

Repeated from above (sample 4):
Oligonucleotide	fluorescence intensity [a.u.]
TTGACGATTATGATGAACGTGACTCGCAAGAAATAT	754
AGAAATTTTGGCCGCCATGTGGTCTTCTACAATTAT	110
